Measurements gathered from unrelated publications.
Every numbered part comes from another study and shows a few of its results, in no order. Positions count from the first letter of the parent shown.

Block 1 — technique: DHFR PCA, deep sequencing; matrix: yeast; together with: (+)-ABA 0.0091 µM; baseline: wild-type fitted maximum; direction: higher = stronger binding; measurement: relative binding score
Target: ABI1, truncated, D143A, DHFR fusion (Arabidopsis thaliana)
Setting: methotrexate growth selection, single substitutions
Parent: PYL1, truncated, DHFR fusion (Arabidopsis thaliana); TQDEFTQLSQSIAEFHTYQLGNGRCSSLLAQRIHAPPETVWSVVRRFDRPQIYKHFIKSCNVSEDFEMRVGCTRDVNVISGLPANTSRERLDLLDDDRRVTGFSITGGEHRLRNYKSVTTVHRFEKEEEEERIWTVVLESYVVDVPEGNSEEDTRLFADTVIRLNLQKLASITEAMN; partner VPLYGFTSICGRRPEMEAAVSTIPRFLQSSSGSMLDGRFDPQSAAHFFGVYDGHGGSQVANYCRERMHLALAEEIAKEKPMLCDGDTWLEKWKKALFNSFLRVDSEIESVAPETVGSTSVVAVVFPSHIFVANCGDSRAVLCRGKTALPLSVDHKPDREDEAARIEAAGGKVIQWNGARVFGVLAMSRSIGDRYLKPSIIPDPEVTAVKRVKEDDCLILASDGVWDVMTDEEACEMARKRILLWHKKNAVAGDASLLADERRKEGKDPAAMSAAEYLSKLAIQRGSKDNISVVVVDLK
E139V: 5.76%
V100R: 0.077%
D48T: -7.29%
M68Q: -3.33%
Y115K: 11.7%
D153N: 5.94%
T6A: 46.8%
C72I: 6.08%
A35V: 2.72%
T154H: -2.8%
P36W: 3.53%
P146L: 28.8%
K116T: 10.6%
E109P: -2.51%
G108M: -4.25%
L94A: -2.74%
G148W: 4.7%
D48E: 1.27%
N77F: 9.18%
T101M: 76.8%
G108K: -6.88%
Q167T: 4.37%
G81Q: 9.91%
E67P: 5.54%
W41Q: -0.191%

Block 2 — technique: protein binding microarray; molecule type: double-stranded DNA, one strand shown; matrix: in vitro; tested at: not given; baseline: not given; direction: higher = stronger binding; measurement: E-score
Target: Histone acetyltransferase KAT6A, winged helix 1, GST fusion (KAT6A, Homo sapiens, UniProt Q92794, residues 1-85)
Setting: 8-mer, flanks averaged, mean of 2 arrays, mostly near background
Construct (chain): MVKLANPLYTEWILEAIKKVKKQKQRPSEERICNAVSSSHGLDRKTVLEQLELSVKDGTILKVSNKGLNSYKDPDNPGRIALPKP
CAAACGCA: 0.0359
CGCAGATC: 0.197
CAGCATTA: -0.173
ACAATCAT: -0.171
CGCGGCGC: 0.461
CGTTTATC: 0.0631
CATTTTGA: -0.225
AGCCAACG: 0.0514
CTGTCGTA: -0.113
TCCGTTCA: 0.0311
ATAGCTGG: -0.122
AAAGTCGG: 0.0191
CGACTGCG: 0.255
CCAAACAC: -0.0233
AAATATAC: -0.141
AATCAGTC: -0.121
AGCCTTTG: -0.172
ATGAGCAT: -0.267
GGCAGGCC: 0.0666
ACACTACC: 0.0229
TCGGTCCA: -0.168
TGGAGAAA: -0.0763
TGAAGGCA: -0.236
AGGCGCAG: 0.0757
GCCACAAA: -0.0277

Block 3 — technique: RNA Bind-n-Seq; molecule type: RNA; matrix: in vitro; tested at: 200 nM; setting: whole 134-nt RNA, ends assumed; together with: 150 mM LiCl; baseline: input library; direction: higher = stronger binding; measurement: log2 enrichment; library: 7-deaza-guanosine replaces G
Target: Ras GTPase-activating protein-binding protein 1, full length (G3BP1, Homo sapiens, UniProt Q13283)
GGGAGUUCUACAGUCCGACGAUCUGCACUGACUGGUGGUGUCAACCCAUGGCUCAACUGGAAGCACUGUGGAAGAAGAUGGAGGGUGUGGUAAGUCCAUCAGACCUGGGACCGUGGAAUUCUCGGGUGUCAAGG: -2.25
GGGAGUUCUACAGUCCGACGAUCUUAGAAGAACCCGAAGAACCUAAAGUGCUAACACCAGAAGAACAAUUAGCAGAUAAACUGCGGCUAAAGAAAUUACAGGAAGAGUCAGACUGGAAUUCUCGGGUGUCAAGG: 0.0987
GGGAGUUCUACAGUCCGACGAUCACCAUGCAGGUGGGCAUCUUUGGGAAGUGGGGCAAGGGGGGGAUAGGGAGGGGGGUAACACUUUGGGAACAGGUGGUCCCAGGUCGUAAAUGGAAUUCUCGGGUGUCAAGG: 0.136
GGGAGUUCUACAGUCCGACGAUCGUCCUGUGCUACACAUCGUAUGUACCGAAUCGGGCCCCCCGGCCCCCCGGCCCCCCGGAAAGUAUUAUGUUACGCCGUUCGGAUCUGCACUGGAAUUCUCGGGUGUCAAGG: -0.073
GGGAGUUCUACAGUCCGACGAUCCCUCAAGUCCUGUGCUACACAUCGUAUGUACCGAAUCGGUGGGGUGGGUGGGGAAAGUAUUAUGUUACGCCGUUCGGAUCUGCACUUCCAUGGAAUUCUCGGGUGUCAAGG: 0.248
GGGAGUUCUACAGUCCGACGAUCACCAUGCAGGUGGGCAUCUUUGGGAAGUGGGGAAAGGGGGGGAUAGGGAGGGGGGUAACACUUUGGGAACAGGUGGUCCCAGGUCGUUUCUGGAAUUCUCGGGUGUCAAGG: 0.212
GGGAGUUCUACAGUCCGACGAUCUGGCCCUGGUGUCAUGCGGGGAGGAAGAGGUGGCCUCAUGGAUCGUGGUGGUCCCGGUGGAAUGUUCAGAGGUGGCCGUGGUGGAGACAGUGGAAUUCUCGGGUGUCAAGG: 0.101
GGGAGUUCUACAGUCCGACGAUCGUCCUGUGCUACACAUCGUAUGUACCGAAUCGGGGAAAAAGGGGUGGGGUUUUUGGGGAAAGUAUUAUGUUACGCCGUUCGGAUCUGCACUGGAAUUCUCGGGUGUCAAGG: -0.055
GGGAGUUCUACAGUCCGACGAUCUGUGAACUUGUAUGUGAAGAAUCUGGACGACUCCAUUGAUGACGACAAACUGAGGAAAGAGUUCUCUCCCUAUGGAGUAAUUACCAGUGCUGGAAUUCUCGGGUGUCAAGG: 0.845
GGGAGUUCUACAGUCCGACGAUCCACAGACAACACGCACCCACACAGACACGGAGGGAAGGGGUUGGGAUGGGGACAGGGUGCACAGCAGGGCGGGGUAGGACCCCAGCCCCUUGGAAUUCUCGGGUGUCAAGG: -0.129
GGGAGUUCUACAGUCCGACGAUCUUCCCUGAAGAUGAGAUCCCAGAGAAGGCCUGCAGGCGCCUGCUUGAAGGGAGGCGGCAGAAGAAGACGAAGAAGCAGAAGCGUCUGCUCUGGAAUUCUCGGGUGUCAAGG: -0.774

Block 4 — technique: yeast two-hybrid; matrix: yeast; setting: mostly zero background; baseline: not given; direction: higher = stronger interaction; measurement: lacZ reporter activity
Molecule: KPDKMEETLTCIICQDLLHDCVSLQPCMHTFCAACYSGWMERSSLCPTCRCPVERICKNH (CHFR RING domain (UniProt Q96EP1))
UBE2O UBC core domain (UniProt Q9C0C9): 0
UBE2D4 UBC core domain (UniProt Q9Y2X8): 8460
UBE2R2 UBC core domain (UniProt Q712K3): 0
UBE2D2 UBC core domain (UniProt P62837): 10400
UBE2S UBC core domain (UniProt Q16763): 0

Block 5 — technique: universal PBM; molecule type: double-stranded DNA, one strand shown; matrix: in vitro; tested at: not given; direction: higher = stronger binding; measurement: E-score
Target: Sal-like protein 4, full length isoform B (SALL4, Homo sapiens, UniProt Q9UJQ4-2, residues 1-616)
Setting: 8-mer, flanks averaged, mean of replicates
CGCTTCCG: -0.172
AGTAGAGA: 0.0384
AGCAACTG: -0.0955
GATCCGAC: -0.0731
CTAACCCC: -0.145
CGGACTCC: -0.2
AGGCCTGC: -0.276
AAGGGCGT: -0.0874
ACAACTAT: 0.168
CCTGGGCC: -0.319
CCTGGGTC: -0.289
CACTATAC: 0.149
AACTGAGG: -0.0253
CTGTGTAA: 0.13
ATAACACC: 0.254
AAACTCAT: 0.214
AATATGGC: 0.227
GTATCGAA: 0.0974
ACAAAAGG: -0.1
CCGCGACC: -0.284
ACGGTATA: -0.0314

Block 6 — technique: aptamer microarray, sandwich; molecule type: DNA with 2'F-ANA; matrix: in vitro; tested at: 200 nM; together with: Cy3 exosite-II aptamer, 400 nM; direction: higher = stronger binding; measurement: mean fluorescence intensity; sequence: GGTTGGTGTGGTTGG
Target: Prothrombin, mature alpha-thrombin (F2, Homo sapiens, UniProt P00734)
Setting: whole 15-mer aptamer, many near background
2'F-ANA at 2 5 6 9 10 11 14: 48.4 a.u.
2'F-ANA at 4 5 10 11 13 14 15: 59.9 a.u.
2'F-ANA at 1 2 3 4 5 8 9 12 14: 86.5 a.u.
2'F-ANA at 1 2 3 4 5 7 8 9 10 11 12 14: 77.2 a.u.
2'F-ANA at 1 2 5 7 8 13 15: 54.4 a.u.
2'F-ANA at 1 2 3 7 10 11 12 13 15: 90.8 a.u.
2'F-ANA at 1 2 4 6 8 9 10 12 13 14 15: 64.3 a.u.
2'F-ANA at 4 8 10 11 13 15: 66.9 a.u.
2'F-ANA at 3 4 6 7 8 12 13 14: 419 a.u.
2'F-ANA at 1 2 3 6 9 12 14 15: 75.6 a.u.
2'F-ANA at 1 2 6 8 11 12 14: 61 a.u.
2'F-ANA at 2 6 7 8 9 12 13 14 15: 154 a.u.
2'F-ANA at 2 3 5 7 8: 138 a.u.
2'F-ANA at 3 4 5 6 7 12 14 15: 52.8 a.u.
2'F-ANA at 1 2 3 5 6 7 8 11 12 13 14 15: 47.7 a.u.
2'F-ANA at 1 2 3 4 5 6 8 12 13 15: 86.5 a.u.
2'F-ANA at 1 2 3 7 8 10 11 13: 62.1 a.u.

Block 7 — target: CCNB3, cyclin fold, Cln2 fusion (human); technique: yeast growth competition, sequencing; matrix: yeast; setting: weak parent motif; baseline: not given; direction: higher = stronger binding; measurement: normalised enrichment score
Parent: SAMHD1 docking peptide (human); ASKSRVQLFKDDP; partner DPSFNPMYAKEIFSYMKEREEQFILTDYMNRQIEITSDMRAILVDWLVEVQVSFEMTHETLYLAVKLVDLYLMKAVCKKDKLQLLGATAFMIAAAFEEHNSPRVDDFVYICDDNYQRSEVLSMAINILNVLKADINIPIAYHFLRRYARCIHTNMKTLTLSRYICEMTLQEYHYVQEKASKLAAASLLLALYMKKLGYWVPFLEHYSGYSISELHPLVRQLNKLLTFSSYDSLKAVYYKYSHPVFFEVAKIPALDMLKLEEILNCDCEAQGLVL
ASKSWVQLFKDDP [R5W]: 0.502
ASKSRVQEFKDDP [L8E]: -0.163
ASKSRGQLFKDDP [V6G]: -0.061
AAKSRVQLFKDDP [S2A]: 0.0748
ASDSRVQLFKDDP [K3D]: -0.0857
ASKSRVQRFKDDP [L8R]: -0.356
ASSSRVQLFKDDP [K3S]: -0.185
ASKSRSQLFKDDP [V6S]: -0.591
ASKSRVLLFKDDP [Q7L]: -0.0466
ASGSRVQLFKDDP [K3G]: -0.0808
ASKSRVQCFKDDP [L8C]: -0.053
ASKSRVQLRKDDP [F9R]: 0.0521
AHKSRVQLFKDDP [S2H]: 0.196
ASKSRVQLMKDDP [F9M]: 0.0817
ASKSRVQLFKVDP [D11V]: 0.0594
ASKSRVELFKDDP [Q7E]: -0.285
ASKSRVMLFKDDP [Q7M]: -0.486
AGKSRVQLFKDDP [S2G]: -0.131
ANKSRVQLFKDDP [S2N]: -0.173

Some of these lines once more (block 2):
AGCCAACG: 0.0514
AATCAGTC: -0.121
TGAAGGCA: -0.236
CCAAACAC: -0.0233
AAATATAC: -0.141
ATAGCTGG: -0.122
CGACTGCG: 0.255
AAAGTCGG: 0.0191
CGTTTATC: 0.0631
ATGAGCAT: -0.267
